Published values from different studies.
Every numbered part comes from another study and shows a few of its results, in no order. Changes are numbered by the printed parent chain.

Series 1 — technique: protein-binding microarray; molecule type: double-stranded DNA, one strand shown; medium: in vitro; tested at: 2200 nM top; notes: 60-bp whole probe; added: salmon DNA 0.4 mg/ml; relative to: random background probes; direction: higher = stronger binding; measurement: fitted relative affinity; all sequences stand within: GCCTAGCAC … GTCTTGATTCGCTTGACGCTGCTG
Target: Interferon regulatory factor 7, full length, phosphomimetic (IRF7, Homo sapiens, UniProt Q92985, residues 1-503, S471D/S472D/S475D/S476D/S477D/S483D/S484D/S487D)
UniProt Q92985, sequence (whole entry, unmodified, looked up): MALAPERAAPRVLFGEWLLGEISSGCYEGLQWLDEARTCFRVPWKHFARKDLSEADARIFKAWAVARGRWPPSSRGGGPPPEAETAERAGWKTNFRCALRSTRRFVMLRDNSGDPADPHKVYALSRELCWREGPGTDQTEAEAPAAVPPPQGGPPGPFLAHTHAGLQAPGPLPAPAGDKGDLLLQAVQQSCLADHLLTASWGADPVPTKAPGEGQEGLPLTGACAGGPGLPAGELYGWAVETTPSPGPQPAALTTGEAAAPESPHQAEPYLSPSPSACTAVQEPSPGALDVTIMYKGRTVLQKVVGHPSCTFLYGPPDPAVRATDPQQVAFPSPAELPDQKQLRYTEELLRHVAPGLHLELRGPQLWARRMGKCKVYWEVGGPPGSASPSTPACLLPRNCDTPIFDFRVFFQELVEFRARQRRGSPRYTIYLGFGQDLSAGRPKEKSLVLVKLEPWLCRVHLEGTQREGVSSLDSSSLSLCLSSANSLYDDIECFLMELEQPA
Strand = ATAGGTATCGGACTGGGTTAGTGCTAG; value = 0.534 z-score
Strand = GACGATCTCAGACTGAAGACGTGCTAG; value = 0.093 z-score
Strand = TTAGATATCAGACTGGATCAGTGCTAG; value = -0.127 z-score
Strand = GACGGTATCGGGTCTCGGGACGTGCTA; value = 0.113 z-score
Strand = TTAGGTATCGGTTTCGTTTAGTGCTAG; value = 6.51 z-score
Strand = TTAAGTTCCGGTTTCGGTTAGTGCTAG; value = 9.7 z-score
Strand = GACGATTTAAGTATCGAGACGTGCTAG; value = -0.0989 z-score
Strand = CTTCCTTTACTTTCTTTTTTGTGCTAG; value = 5.37 z-score
Strand = GACGGTTCCCTCTTCCTGACGTGCTAG; value = 2.25 z-score
Strand = TTAGGACTGGGTTTCGGTTCGTGCTAG; value = 8.53 z-score
Strand = TCACACCAGAGGGCGCTGTGGTGCTAG; value = -0.361 z-score
Strand = GACGATCTCAGACTGCAGACGTGCTAG; value = -0.0247 z-score

Series 2 — target: CCNE2, cyclin fold, Cln2 fusion (human); technique: yeast growth competition, sequencing; medium: yeast; notes: weak parent motif; relative to: not given; direction: higher = stronger binding; measurement: normalised enrichment score
Parent: MICAL3 docking peptide (human); LQLRRQLSFSEDS; partner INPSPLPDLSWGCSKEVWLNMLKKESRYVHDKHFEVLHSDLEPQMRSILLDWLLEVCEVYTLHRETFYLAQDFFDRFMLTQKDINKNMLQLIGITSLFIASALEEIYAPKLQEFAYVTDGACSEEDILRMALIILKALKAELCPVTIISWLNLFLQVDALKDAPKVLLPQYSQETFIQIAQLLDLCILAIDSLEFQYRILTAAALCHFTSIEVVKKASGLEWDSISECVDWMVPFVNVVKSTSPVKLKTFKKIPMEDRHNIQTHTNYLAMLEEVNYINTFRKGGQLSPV
Variant = R4L; value = 0.0935
Variant = Q2N; value = 0.123
Variant = R5G; value = 0.0485
Variant = D12V; value = 0.713
Variant = R5V; value = 0.168
Variant = S8E; value = 0.123
Variant = R5I; value = 0.366
Variant = L3H; value = 0.594
Variant = L3F; value = 1.07
Variant = R5D; value = -0.114
Variant = E11R; value = 0.618
Variant = Q2Y; value = 0.372
Variant = E11Q; value = 0.259
Variant = S10D; value = 0.143
Variant = Q6G; value = -0.0835
Variant = Q6E; value = 0.0958
Variant = Q2T; value = 0.17
Variant = D12T; value = 0.604
Variant = E11V; value = 0.397
Variant = D12W; value = 0.702
Variant = Q6M; value = 0.638
Variant = S8M; value = 0.41
Variant = D12F; value = 0.915
Variant = S8H; value = 0.721
Variant = L3P; value = 0.719

Series 3 — target: CREB3, bZIP domain (human); technique: DHFR protein complementation; medium: yeast; relative to: wild-type JUN-FOS pair; direction: higher = stronger binding; measurement: binding fitness
Notes: single substitutions, most at no-binding floor
Parent: JUN, bZIP domain (human); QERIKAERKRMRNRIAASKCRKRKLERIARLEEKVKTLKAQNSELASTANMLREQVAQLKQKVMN; partner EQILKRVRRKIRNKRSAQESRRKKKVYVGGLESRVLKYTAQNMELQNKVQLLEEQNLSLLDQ
Variant = L38G; value = -1.51 natural log
Variant = S47G; value = -1.35 natural log
Variant = T48P; value = -1.53 natural log
Variant = N42V; value = -1.44 natural log
Variant = A46T; value = -1.42 natural log
Variant = L31H; value = -1.53 natural log
Variant = V35I; value = -1.32 natural log
Variant = L45V; value = -1.54 natural log
Variant = R53N; value = -1.53 natural log
Variant = S43I; value = -1.26 natural log
Variant = Q55M; value = -1.45 natural log
Variant = A57E; value = -1.38 natural log
Variant = Q55G; value = -1.52 natural log
Variant = E33M; value = -1.46 natural log

Series 4 — technique: DHFR PCA, deep sequencing; medium: yeast; added: (+)-ABA 0 µM; relative to: wild-type fitted maximum; direction: higher = stronger binding; measurement: relative binding score
Target: ABI1, truncated, D143A, DHFR fusion (Arabidopsis thaliana)
Notes: methotrexate growth selection, single substitutions
Parent: PYL1, truncated, DHFR fusion (Arabidopsis thaliana); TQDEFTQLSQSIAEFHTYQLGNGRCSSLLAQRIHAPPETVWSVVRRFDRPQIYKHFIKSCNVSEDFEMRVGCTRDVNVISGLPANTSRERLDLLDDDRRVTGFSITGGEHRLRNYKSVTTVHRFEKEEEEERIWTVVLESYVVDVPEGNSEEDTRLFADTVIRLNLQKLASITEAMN; partner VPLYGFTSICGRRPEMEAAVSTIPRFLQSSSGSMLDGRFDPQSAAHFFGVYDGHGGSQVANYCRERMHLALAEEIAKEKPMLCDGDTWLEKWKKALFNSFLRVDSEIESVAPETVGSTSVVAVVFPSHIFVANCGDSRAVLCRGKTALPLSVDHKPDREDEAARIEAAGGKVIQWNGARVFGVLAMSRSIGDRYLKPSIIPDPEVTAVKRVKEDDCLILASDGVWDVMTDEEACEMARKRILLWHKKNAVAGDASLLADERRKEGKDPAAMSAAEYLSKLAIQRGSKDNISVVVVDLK
Variant = D159W; value = -6.58%
Variant = R90G; value = 2.32%
Variant = S87M; value = 36.1%
Variant = V44H; value = -4.93%
Variant = K58C; value = -1.33%
Variant = G81P; value = 28.8%
Variant = Q31E; value = 1.52%
Variant = R113S; value = 8.09%
Variant = A35S; value = 1.84%
Variant = R163Q; value = 29.1%
Variant = K58G; value = 5.71%
Variant = V161D; value = 1.42%
Variant = N61L; value = 21.7%
Variant = P36H; value = 20.8%
Variant = A84F; value = 78.4%

Repeated from above (series 2):
Variant = S8E; value = 0.123
Variant = Q6E; value = 0.0958
Variant = S8M; value = 0.41
Variant = R5V; value = 0.168
Variant = D12W; value = 0.702
Variant = E11Q; value = 0.259
Variant = R5G; value = 0.0485
